Experimental data from different studies.
Every numbered part comes from another study and shows a few of its results, in no order.

Series 1
Target: Histone acetyltransferase KAT6A, winged helix 2, GST fusion (KAT6A, Homo sapiens, UniProt Q92794, residues 85-181)
Technique: protein binding microarray
Form: double-stranded DNA, one strand shown
Sample: in vitro
Tested at: not given
Notes: 8-mer, flanks averaged, mean of 2 arrays, mostly near background
Baseline: not given
Reading: higher = stronger binding
Construct (chain): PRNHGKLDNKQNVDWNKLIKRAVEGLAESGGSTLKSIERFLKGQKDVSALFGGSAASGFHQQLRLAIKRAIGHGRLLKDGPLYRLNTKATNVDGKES
Strand	E-score
GGTGATAA	-0.0588
GCTCCAAC	0.106
AACTAGAT	0.0383
CCGGTAGA	-0.0279
GCGTATAC	0.0797
AAGGCCAT	-0.119
ATTAACAC	0.0883
CGAAACAG	0.115
AGATCAGG	-0.0741
ACTAGGAA	-0.186
TCGAGAAA	0.114
CAGTTTGA	0.0916
GTATCAAC	-0.084
CCGTAGCC	-0.0491
AGAGCCCC	0.0769
AACCGCGG	0.196
ATTATCTC	-0.0126
ATTGGGTC	0.147
ATTCGTCC	0.227
ACTTGCAC	-0.129
CATCTCCA	-0.015
ATTATCTG	0.052
CTAACGGC	0.0725
AACACTGT	-0.205
ACCGACGA	0.151

Series 2
Target: Sal-like protein 4, full length isoform A (SALL4, Homo sapiens, UniProt Q9UJQ4, residues 1-1053)
Sequence of UniProt Q9UJQ4 (whole entry, looked up): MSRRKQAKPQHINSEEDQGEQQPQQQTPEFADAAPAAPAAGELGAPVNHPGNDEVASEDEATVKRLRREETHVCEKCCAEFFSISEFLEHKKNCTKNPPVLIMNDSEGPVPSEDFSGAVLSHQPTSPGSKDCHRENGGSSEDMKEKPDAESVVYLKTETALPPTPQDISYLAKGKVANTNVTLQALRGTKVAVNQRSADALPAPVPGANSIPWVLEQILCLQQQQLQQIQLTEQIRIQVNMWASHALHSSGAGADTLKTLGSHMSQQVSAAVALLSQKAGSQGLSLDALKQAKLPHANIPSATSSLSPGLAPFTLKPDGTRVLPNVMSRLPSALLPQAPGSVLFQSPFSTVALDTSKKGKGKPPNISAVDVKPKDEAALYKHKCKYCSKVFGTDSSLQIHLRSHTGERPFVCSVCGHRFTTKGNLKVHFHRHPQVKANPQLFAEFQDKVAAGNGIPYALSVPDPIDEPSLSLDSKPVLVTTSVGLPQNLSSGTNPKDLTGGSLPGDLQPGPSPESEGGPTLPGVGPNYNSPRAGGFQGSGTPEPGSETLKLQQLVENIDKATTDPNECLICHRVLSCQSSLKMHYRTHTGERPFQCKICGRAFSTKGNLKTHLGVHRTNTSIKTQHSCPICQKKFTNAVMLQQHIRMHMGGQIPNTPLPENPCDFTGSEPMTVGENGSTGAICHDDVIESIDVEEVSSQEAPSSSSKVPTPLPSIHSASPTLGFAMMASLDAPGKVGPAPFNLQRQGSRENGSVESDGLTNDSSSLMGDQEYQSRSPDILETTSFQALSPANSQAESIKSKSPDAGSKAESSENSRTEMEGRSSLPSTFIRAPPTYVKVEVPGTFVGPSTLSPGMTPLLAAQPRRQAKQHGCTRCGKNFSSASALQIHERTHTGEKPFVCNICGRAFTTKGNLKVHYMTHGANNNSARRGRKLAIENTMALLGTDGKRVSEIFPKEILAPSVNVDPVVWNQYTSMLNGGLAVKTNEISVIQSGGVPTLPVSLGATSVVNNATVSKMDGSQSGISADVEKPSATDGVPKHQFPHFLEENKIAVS
Technique: universal PBM
Form: double-stranded DNA, one strand shown
Sample: in vitro
Tested at: 600 nM
Notes: 8-mer, flanks averaged, mean of replicates
Reading: higher = stronger binding
Strand	E-score
GCTCGAGA	-0.162
CTAAACGA	-0.0332
AGGTTGAT	-0.0968
GACTAGGC	0.0153
CGCGTTGC	-0.057
CGCGCAAG	-0.162
AGGGTGTC	-0.169
CCTCTTCG	-0.106
CCCGCTGA	-0.413
CAATGCCC	-0.145
GAAAGGAA	-0.0348
ACAACTGA	0.175
ACAGCCTA	0.0492
CGAGGATC	-0.123
ACATGTCG	0.0172
CTCAACAC	0.0446
ACCCTTCG	-0.219
ACACACTG	-0.113
ACAGGTAA	0.134

Series 3
Target: Prothrombin, mature alpha-thrombin (F2, Homo sapiens, UniProt P00734)
Technique: aptamer microarray, sandwich
Form: DNA with 2'F-ANA
Sample: in vitro
Tested at: 200 nM
Notes: whole 15-mer aptamer, many near background
Together with: Cy3 exosite-II aptamer, 400 nM
Reading: higher = stronger binding
Strand: GGTTGGTGTGGTTGG
Modification	mean fluorescence intensity
2'F-ANA at 4 7 10 14	63.9 a.u.
2'F-ANA at 1 3 4 5 7 8 10 11 13	96.4 a.u.
2'F-ANA at 5 7 9 11 12	141 a.u.
2'F-ANA at 1 3 11 12 14	119 a.u.
2'F-ANA at 4 6 8 11 13 14 15	72.3 a.u.
2'F-ANA at 2 4 6 9 10	91.1 a.u.
2'F-ANA at 1 2 4 6 8 10 11 12 14 15	145 a.u.
2'F-ANA at 2 4 5 9 11 14 15	51.7 a.u.
2'F-ANA at 1 3 4 5 10 12	61.2 a.u.
2'F-ANA at 2 3 4 6 7 9 10 11 12 14 15	151 a.u.
2'F-ANA at 2 3 4 5 8 12 14 15	74.9 a.u.
2'F-ANA at 1 4 5 8 9 11 12 15	85.6 a.u.
2'F-ANA at 1 2 3 4 5 6 7 8 13 14 15	52 a.u.
2'F-ANA at 2 7 8 10 13	141 a.u.
2'F-ANA at 2 3 4 6 8 10 13 15	177 a.u.
2'F-ANA at 1 2 4 5 6 8 10 11	50.1 a.u.
2'F-ANA at 2 3 8 9 13	720 a.u.
2'F-ANA at 2 4 6 7 10 11 14 15	57.1 a.u.
2'F-ANA at 2 3 6 8 9 12 14 15	386 a.u.
2'F-ANA at 7 9 13 14	201 a.u.
2'F-ANA at 2 3 4 5 8 10 15	64.8 a.u.

Series 4
Target: Transcription factor Sp1 (SP1, Homo sapiens, UniProt P08047, residues 1-785, full length assumed)
Sequence of UniProt P08047 (whole entry, looked up): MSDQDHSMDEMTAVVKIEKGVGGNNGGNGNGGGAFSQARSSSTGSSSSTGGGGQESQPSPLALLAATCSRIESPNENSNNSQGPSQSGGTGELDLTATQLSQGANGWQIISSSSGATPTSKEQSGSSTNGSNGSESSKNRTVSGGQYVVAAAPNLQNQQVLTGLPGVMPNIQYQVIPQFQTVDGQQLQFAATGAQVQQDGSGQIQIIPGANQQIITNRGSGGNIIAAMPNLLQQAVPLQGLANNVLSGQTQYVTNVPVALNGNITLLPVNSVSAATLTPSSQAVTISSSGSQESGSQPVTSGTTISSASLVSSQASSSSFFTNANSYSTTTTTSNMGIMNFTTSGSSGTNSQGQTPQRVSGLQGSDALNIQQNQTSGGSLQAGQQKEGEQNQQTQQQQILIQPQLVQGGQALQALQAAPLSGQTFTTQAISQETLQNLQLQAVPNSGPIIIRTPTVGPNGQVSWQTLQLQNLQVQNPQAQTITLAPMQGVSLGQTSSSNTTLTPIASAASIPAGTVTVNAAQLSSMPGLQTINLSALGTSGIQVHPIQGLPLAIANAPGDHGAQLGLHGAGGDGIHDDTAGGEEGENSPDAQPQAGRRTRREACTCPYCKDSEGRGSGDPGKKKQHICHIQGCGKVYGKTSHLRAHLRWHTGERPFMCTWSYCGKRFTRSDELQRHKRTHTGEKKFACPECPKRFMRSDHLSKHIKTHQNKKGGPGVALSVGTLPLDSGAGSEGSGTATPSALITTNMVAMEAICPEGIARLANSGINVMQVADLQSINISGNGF
Technique: protein-binding microarray
Form: double-stranded DNA, one strand shown
Sample: in vitro
Tested at: not given
Notes: k-mer, scored over probes, only values ≥0.25
Reading: higher = stronger binding
Strand	E-score
CACAACCC	0.277
CCTACCCC	0.368
GGTGGGCA	0.265
CACCCCCA	0.293
CGCCCCCA	0.426
CGCCCGCC	0.367
ATAACATA	0.281
ACATGGGG	0.259
ACCCCTAT	0.311
ACCGCCCA	0.32
GGCCATAA	0.25
CCCCCTGC	0.302
CACACAAC	0.28
CCCCAACC	0.265
CAGAAATG	0.253
AACGTTGT	0.28
CCCACACC	0.358
GGGCGGTA	0.27
CCCCGCCC	0.498
ATGTATAC	0.268
TCCCCTAA	0.324
AAGGCGGG	0.323
AATGTCAC	0.275
GTATGATA	0.31
ACACCTAC	0.273

Series 5
Target: RNA binding protein fox-1 homolog 2, RRM domain, GST-SBP tag (RBFOX2, Homo sapiens, UniProt O43251-10, residues 100-194)
Technique: RNA Bind-n-Seq
Form: RNA
Sample: in vitro
Tested at: 365 nM
Notes: natural RNA segment, single round, ends assumed
Baseline: no-protein control
Reading: higher = stronger binding
Shared flanks, not repeated: GGGAGUUCUACAGUCCGACGAUC … UGGAAUUCUCGGGUGCCAA
Construct (chain): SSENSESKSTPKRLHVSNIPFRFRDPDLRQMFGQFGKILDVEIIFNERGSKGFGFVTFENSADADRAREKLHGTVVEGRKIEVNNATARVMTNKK
Strand	RBNS enrichment (R)
GUACUCAGUGAUAAAGUUAGCCAGCUCCAGAUAUGCAUAAAGAGUCUAAAGGUUUCUAAGUGUAUCUUGCAAGAGAAUCUCCACUCCAGCAAUCACAGCUCAAAUUGUGG	0.666
AAAUAAUAUGUGUAAAUUGAAAUUUUUUUCAUUUUUAAGUUAUCAGGCACUUUUCAUGCUGUUUAAAAGACUGUGUAUCAAAUUGUGCACUUUAAGUAUGUGCAGUUUGU	0.331
AGAAAGUCUCUUCUUCAUCACUGAAUUCAGUCACUUGGAGAUGACAACUUCAAAUGCUAACCCGAUGACCCCAGAAAACCGUGUGAGAUUCGUACCGAAGAACCUUGUGG	0.274
ACAUUUGUAACUCUUAGUUAGACUUUCUAUUAAAUGGGACCAAAUGUGUGUAUGGGUGCUGUCAGUCUGCUUCAGUCUAGCCAGUCCAGUAUCUCCAAGAUGAGACUCAA	0.226
UGCCUCGUCCCACUAUGCACAGAUUGAAACUUCACCUACAAACCUGUUAGUGUGAUCUGUGGAGAAUGUACAGAACUUAACUACAUCAAUAAACACUUUAACGUCCCCUG	0.886
CUUCAAUUGCUUUGCACUUUUCCGUUUCAGCGGAAGACCUGAAGAGUGGUCAGAACAGAGCCUUUGAUUUUUAUUAUGGUUAUUUUAUUGAUUAUUACUGGCAAAAACGG	0.35
AAAACAAGGUGUUCCUUGAUUUAUAAUCCUUCUUGUUUAUGCUGUGUUCUUUGAUUUAUAAUCCUUGUUUGCUCAAUAAAAAGAAAAAAUAAUUUGAUUCAUUUGCCCUC	0.309
CCUCCAUCCCAUAAAGUUGUACUGUGAACUGGAAGAUGGUGGAAUGUUUUGGAAUUUGAUAGACUUUCGGCAACCAGUUCUACUAAUGCUUCACUCCUGGCUCUGUUCAG	0.698

Repeated from above (series 3):
Modification	mean fluorescence intensity
2'F-ANA at 2 4 6 9 10	91.1 a.u.
2'F-ANA at 1 2 4 6 8 10 11 12 14 15	145 a.u.
2'F-ANA at 2 4 5 9 11 14 15	51.7 a.u.
2'F-ANA at 1 3 4 5 10 12	61.2 a.u.
2'F-ANA at 2 3 4 6 7 9 10 11 12 14 15	151 a.u.
2'F-ANA at 2 3 4 5 8 12 14 15	74.9 a.u.
2'F-ANA at 1 4 5 8 9 11 12 15	85.6 a.u.
2'F-ANA at 1 2 3 4 5 6 7 8 13 14 15	52 a.u.
2'F-ANA at 2 7 8 10 13	141 a.u.
2'F-ANA at 2 3 4 6 8 10 13 15	177 a.u.
2'F-ANA at 1 2 4 5 6 8 10 11	50.1 a.u.
